Results collected from several papers.
Numbered parts are unrelated; each lists some results of a single study. Changes are numbered by the printed parent chain.

Series 1
Target: RNA binding protein fox-1 homolog 2, RRM domain, GST-SBP tag (RBFOX2, Homo sapiens, UniProt O43251-10, residues 100-194)
Technique: RNA Bind-n-Seq
Form: RNA
Sample: in vitro
Concentration: 365 nM
Setting: natural RNA segment, single round, ends assumed
Baseline: no-protein control
Reading: higher = stronger binding
Shared flanks, not repeated: GGGAGUUCUACAGUCCGACGAUC … UGGAAUUCUCGGGUGCCAA
Target sequence (chain): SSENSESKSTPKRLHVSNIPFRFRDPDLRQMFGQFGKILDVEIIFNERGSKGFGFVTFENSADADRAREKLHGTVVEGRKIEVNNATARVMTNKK
Strand | RBNS enrichment (R)
UCUAGGGCUGCUAUGGUCACUAACACACUGAUUCUCCUUAAAGUAAUUCUCGAAGUGUGGAACAAAGUGACCGAGACAGCAUCCUCAGUCAUCUUUGUCUCCUUCCCUGG | 0.302
CAGCUGCGUCCCGGAAACCAAGGUGGUGGGGACUCCCUGUGCCACCUCAUGCCACCCACUGGCUGGAGGGAAGGAGGGCAUGUAUCCGAUUAGAAUAGUCAAGUGGAUUA | 0.476
GUCACCUGCCCAGAUCCCAGAAGGACCUCCUGAGCGAUGACUCAAGUGUCUCAGUCCACCUGAGCUGCCAUCCAGGGAUGCCAUCUGUGGGCACGCUGUGGGCAGGUGGG | 0.413
UUUCUCAGGUUCUUAACAGCCUGUGCAAACUCCCUGACUAGAUGGUCUGUCACUCCUAUCAUUACCUUGCACCCAUCUCUUUAGAUGGCCUCAGCACCUCACUCGUUAUU | 0.973
AGAUUUUCUACUUGAAUAUUUUUAUGUUGUAGGAACCUCAGGAGGUCAGUGUUUACUGUUUUAUAUAUGCCUUCUUUUUCCUGUUUGAGCUUCUCUCUCUGAAGGAUUCU | 0.327
UGUAGUAUUUUCUUAUAGUUAUAACUCAAAAAUAUCAAGCAGACAGAGAAUUUAGGCAGUGCAAAGGAGUAUUCUUGUGUGUUUGUGUUGAGUCAUUCUGUCCAUUCCUC | 0.758
CUAACGUUUGUCUCUGACAAGAUCAGCUGUAGGCUCACCGGCCAGAGAAGACCACUGUGAGCAUUUUGCCGUAUAUCCUGCCCUGCCAUUUGUUCACUUUUUAAACUAAA | 0.379
AUUAGCAUGUUUGCAUAGCAACCAGUCAAGAGCAUUUACACUAUUUCUGCUGAUAUACUCACCUUAGAACUGCUCAGAACCCUGGUGCUUUAUUUUUGUUUUAAUCUUUU | 4.14

Series 2
Target: Ras GTPase-activating protein-binding protein 1, full length (G3BP1, Homo sapiens, UniProt Q13283)
UniProt Q13283, sequence (whole entry, looked up): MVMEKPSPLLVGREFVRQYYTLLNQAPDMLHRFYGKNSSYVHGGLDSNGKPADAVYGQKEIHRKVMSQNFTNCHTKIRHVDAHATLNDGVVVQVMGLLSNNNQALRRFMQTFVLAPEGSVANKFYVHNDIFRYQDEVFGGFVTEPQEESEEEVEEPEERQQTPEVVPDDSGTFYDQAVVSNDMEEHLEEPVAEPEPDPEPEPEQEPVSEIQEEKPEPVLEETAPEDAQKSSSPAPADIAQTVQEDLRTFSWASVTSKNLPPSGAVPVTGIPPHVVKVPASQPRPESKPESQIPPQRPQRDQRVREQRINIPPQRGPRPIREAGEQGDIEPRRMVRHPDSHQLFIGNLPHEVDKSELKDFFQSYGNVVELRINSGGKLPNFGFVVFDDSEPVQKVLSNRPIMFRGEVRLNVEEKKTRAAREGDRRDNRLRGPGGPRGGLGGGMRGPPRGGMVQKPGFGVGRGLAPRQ
Technique: RNA Bind-n-Seq
Form: RNA
Sample: in vitro
Concentration: 200 nM
Setting: whole 134-nt RNA, ends assumed
With: 150 mM LiCl
Baseline: input library
Reading: higher = stronger binding
All molecules: 7-deaza-guanosine replaces G
Shared flanks, not repeated: GGGAGUUCUACAGUCCGACGAUC … UGGAAUUCUCGGGUGUCAAGG
Strand | log2 enrichment
UCCUGUGCUACACAUCGUAUGUACCGAAUCGGGAAAAAAAGGAAAAAAAGGAAAAAAAGGAAAGUAUUAUGUUACGCCGUUCGGAUCUGC | -0.298
AAGUCCUGUGCUACACAUCGUAUGUACCGAAUCGGGUUUUGGGGUUUUGGUUUUGGAAAGUAUUAUGUUACGCCGUUCGGAUCUGCACUU | -0.926
CCUCAAGUCCUGUGCUACACAUCGUAUGUACCGAAUCGGGCGGGGCGGGCGGGAAAGUAUUAUGUUACGCCGUUCGGAUCUGCACUUCCA | -0.632
UCAAGUCCUGUGCUACACAUCGUAUGUACCGAAUCGGGAAAGGGAAAGGAAAGGGAAAGUAUUAUGUUACGCCGUUCGGAUCUGCACUUC | -0.376
CCUGUGCUACACAUCGUAUGUACCGAAUCAAACCCCCCCAAACCCCCCCAAACCCCCAAAAAAGUAUUAUGUUACGCCGUUCGGAUCUGC | 0.297
UGUGCUACACAUCGUAUGUACCGAAUCGGGGUUUUUGGGGAAAAAAAGGGGUUUUUUUGGGGAAAGUAUUAUGUUACGCCGUUCGGAUCU | -0.144

Series 3
Target: CCNB2, cyclin fold, Cln2 fusion (human)
Technique: yeast growth competition, sequencing
Sample: yeast
Setting: strong parent motif
Baseline: not given
Reading: higher = stronger binding
Starting sequence: E2F1 docking peptide (human); PPVKRRLDFETDH
Variant | normalised enrichment score
K4Y | 0.469
K4P | 1.04
R5D | 0.0213
T11F | 4.46
R6I | 1.91
R5E | -0.00756
P2F | 1.63
R5G | 0.56
F9H | 0.0345
E10A | 2.64
D12N | 3.43
R5P | -0.709
P2Y | 2.39
T11D | 4.71

Series 4
Target: UBE2V1 UBC core domain (UniProt Q13404)
Technique: yeast two-hybrid
Sample: yeast
Setting: mostly zero background
Baseline: not given
Reading: higher = stronger interaction
B1: NHLRC1 RING domain (UniProt Q6VVB1); chain MREAEISLLECKVCFEKFGHRQQRRPRNLSCGHVVCLACVAALAHPRTLALECPFCRRACRGCDTSD
B2: RNF115 RING domain (UniProt Q9Y4L5); chain TQEQVDMGLECPVCKEDYTVEEEVRQLPCNHFFHSSCIVPWLELHDTCPVCRKSLNGEDSTR
B3: MDM2 RING domain (UniProt Q00987); chain TQDKEESVESSLPLNAIEPCVICQGRPKNGCIVHGKTGHLMACFTCAKKLKKRNKPCPVCRQPIQMIVLTYFP
B4: PJA2 RING domain (UniProt O43164); chain DHTAIGQEQCCPICCSEYIKDDIATELPCHHFFHKPCVSIWLQKSGTCPVCRRHFPPAVIEA
B5: MARCHF2 RING domain (UniProt Q9P0N8); chain RLLSTVIRALDTPSDGPFCRICHEGANGECLLSPCGCTGTLGAVHKSCLEKWLSSSNTSYCELCHTEFAVEKRPRPLTEWL
B6: RNF17 RING domain (UniProt Q9BXT8); chain SQPWGAAEIQCTRCGRRVSRSSGHHCELQCGHAFCELCLLMTEECTTIICPDCEVATAVNTRQR
Target sequence (chain): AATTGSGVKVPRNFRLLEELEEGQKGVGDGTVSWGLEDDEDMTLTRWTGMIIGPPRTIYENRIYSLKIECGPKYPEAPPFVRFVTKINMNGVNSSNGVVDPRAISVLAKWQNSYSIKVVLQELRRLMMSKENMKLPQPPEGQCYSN
Sequence | lacZ reporter activity
B1 (NHLRC1 RING domain) | 0
KITELNPHLMCALCGGYFIDATTIVECLHSFCKTCIVRYLETNKYCPMCDVQVHKTRPLL (PCGF2 RING domain (UniProt P35227)) | 0
B2 (RNF115 RING domain) | 0
B3 (MDM2 RING domain) | 0
B4 (PJA2 RING domain) | 0
B5 (MARCHF2 RING domain) | 0
B6 (RNF17 RING domain) | 0
SNNDLASLFECPVCFDYVLPPILQCQSGHLVCSNCRPKLTCCPTCRGPLGSIRNLA (SIAH1 RING domain (UniProt Q8IUQ4)) | 0

Series 5
Target: Histone acetyltransferase KAT6A, both winged helices, GST fusion (KAT6A, Homo sapiens, UniProt Q92794, residues 1-181)
Technique: protein binding microarray
Form: double-stranded DNA, one strand shown
Sample: in vitro
Concentration: not given
Setting: 8-mer, flanks averaged, mean of 2 arrays, mostly near background
Baseline: not given
Reading: higher = stronger binding
Residues (chain): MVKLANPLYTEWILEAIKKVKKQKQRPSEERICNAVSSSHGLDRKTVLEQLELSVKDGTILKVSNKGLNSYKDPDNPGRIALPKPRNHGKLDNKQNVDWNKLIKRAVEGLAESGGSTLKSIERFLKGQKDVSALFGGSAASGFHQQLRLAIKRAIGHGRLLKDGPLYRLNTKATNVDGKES
Strand | E-score
AGCTACCA | -0.25
AAGATTTC | -0.0493
CACCTTAG | -0.105
AAGGAAGT | -0.128
AGAAGGGA | -0.167
AACAAAGG | -0.2
AGTTGTGG | -0.114
GTTCCCCA | -0.0579
CCCGCCCG | 0.349
GTCTATAA | -0.163

A few entries again (series 4):
Sequence | lacZ reporter activity
KITELNPHLMCALCGGYFIDATTIVECLHSFCKTCIVRYLETNKYCPMCDVQVHKTRPLL (PCGF2 RING domain (UniProt P35227)) | 0
B2 (RNF115 RING domain) | 0
B3 (MDM2 RING domain) | 0
B4 (PJA2 RING domain) | 0
B5 (MARCHF2 RING domain) | 0
B6 (RNF17 RING domain) | 0
SNNDLASLFECPVCFDYVLPPILQCQSGHLVCSNCRPKLTCCPTCRGPLGSIRNLA (SIAH1 RING domain (UniProt Q8IUQ4)) | 0
